# Published values of several laboratories.
# Each numbered part is a random draw from the data of one study; scales do not carry over between parts.

# Block 1
# Target: Prothrombin, mature alpha-thrombin (F2, Homo sapiens, UniProt P00734)
# Technique: aptamer microarray, sandwich
# Molecule type: DNA with 2'F-ANA
# Sample: in vitro
# Concentration: 200 nM
# Setting: whole 15-mer aptamer, many near background
# Added: Cy3 exosite-II aptamer, 400 nM
# Direction: higher = stronger binding
# Sequence: GGTTGGTGTGGTTGG
Modification,mean fluorescence intensity [a.u.]
2'F-ANA at 4 6 7 8 12 13 14 15,110
2'F-ANA at 3 4 7 8 10 13,266
2'F-ANA at 1 2 3 4 5 9 10 11,59.5
2'F-ANA at 1 3 6 7 9 10 13,79.6
2'F-ANA at 1 2 3 5 6 10 12 15,54.2
2'F-ANA at 4 5 6 7 9 10 11 12 13,94.5
2'F-ANA at 1 3 5 8 15,63.2
2'F-ANA at 2 5 7 8 10 11 12 13 15,49.6
2'F-ANA at 2 4 5 9 10 11 12,49.5
2'F-ANA at 3 5 10,53.2
2'F-ANA at 1 3 7 9 10 11 13 14,56.9
2'F-ANA at 3 5 6 7 8 11 12,239
2'F-ANA at 5 7 9 10 11 15,51.9
2'F-ANA at 2 4 6 7 8 9 10 11,77.6
2'F-ANA at 1 2 3 7 9 10 13 14 15,55.5
2'F-ANA at 2 5 9 11 14,52.8
2'F-ANA at 3 4 8 9 10 11 14,164

# Block 2
# Target: Interferon regulatory factor 5, full length, phosphomimetic (IRF5, Homo sapiens, UniProt Q13568-2, residues 1-514, S451D/S453D/S456D/S462D)
# Technique: protein-binding microarray
# Molecule type: double-stranded DNA, one strand shown
# Sample: in vitro
# Concentration: 940 nM top
# Setting: 60-bp whole probe
# Added: salmon DNA 0.4 mg/ml
# Relative to: random background probes
# Direction: higher = stronger binding
# All sequences stand within: GCCTAGCAC … GTCTTGATTCGCTTGACGCTGCTG
Sequence,fitted relative affinity
GACGGTTGCCTTTCCCTGACGTGCTAG,0.365 z-score
TCTTCCTTTACTTTCTTTTTGTGCTAG,3.27 z-score
GATGGTATCGGTTTCGGGACGTGCTAG,10.3 z-score
CCAGTGCTTGCTCCCCTGCAGTGCTAG,-0.482 z-score
TTAGCTTCCAGTTTCGATTAGTGCTAG,8.39 z-score
GACGAACTGGGGTTTCGAGCCGTGCTA,1.37 z-score
GTAGATATCGGGTTTCGATTAGTGCTA,4.93 z-score
TTAGGACTTGACTATCGGTTAGTGCTA,-0.0914 z-score
GACGATTTCAGTATAGAGACGTGCTAG,0.429 z-score
TTACATATCGGGTATCGATTAGTGCTA,3.36 z-score
GACGAACTGGGGTATCGTGACGTGCTA,0.0795 z-score
GACGATTCCAGTTTCGAGAAGTGCTAG,4.09 z-score
TTAGATCTGGGGTTTCGATTAGTGCTA,5.13 z-score
TTAGGTATCCTAATCCTTTAGTGCTAG,-0.104 z-score
TTAGGTATCCTTCTGCTTTAGTGCTAG,0.729 z-score
TTAGATTCCAGTGTCGATTAGTGCTAG,0.146 z-score
TTAGATCTCAATATCGATTAGTGCTAG,0.661 z-score
GACGGTATCGGCACTGGGGACGTGCTA,3.06 z-score
GACGGTCTCCTTTACCTGACGTGCTAG,0.548 z-score
GACAGTTTCGGGTATCGGGACGTGCTA,10.8 z-score
TTAGGTATCGACAATGGGTTAGTGCTA,4.84 z-score
GACGGTATCGACTATCGGGAGGTGCTA,5 z-score
TTAGGTTTCGGTTCTGGTTAGTGCTAG,14.5 z-score
GACGGACTGGACTATCGGTACGTGCTA,-0.118 z-score
TTAGATCTCATTATCGATTAGTGCTAG,1.13 z-score

# Block 3
# Target: Centromere-binding protein 1, full length, His-tagged (CBF1, Saccharomyces cerevisiae, UniProt P17106, residues 1-351)
# Sequence of UniProt P17106 (whole entry, looked up): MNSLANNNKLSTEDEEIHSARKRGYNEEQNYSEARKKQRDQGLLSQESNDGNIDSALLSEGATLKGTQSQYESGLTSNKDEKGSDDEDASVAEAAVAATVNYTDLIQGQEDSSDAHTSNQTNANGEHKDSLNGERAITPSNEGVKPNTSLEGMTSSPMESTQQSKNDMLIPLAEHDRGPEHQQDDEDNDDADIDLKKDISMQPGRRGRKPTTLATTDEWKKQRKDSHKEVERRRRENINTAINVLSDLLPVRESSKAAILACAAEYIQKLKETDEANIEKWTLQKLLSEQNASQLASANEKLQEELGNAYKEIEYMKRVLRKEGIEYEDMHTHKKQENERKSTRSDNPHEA
# Technique: competition protein-binding microarray
# Molecule type: double-stranded DNA, one strand shown
# Sample: in vitro
# Concentration: 2 µM
# Setting: whole 60-bp probe, lowest competitor level
# Added: Pho4 competitor, 0.05 µM
# Direction: higher = stronger binding
# All sequences stand within: … GTCTTGATTCGCTTGACGCTGCTG
Sequence,fluorescence intensity [a.u.]
CTTCTGTAAATTTGGAATGTGGGTGGACGCGCCCCG,88.9
GTCTTGTCTCATTGAACAGTGGGTGTCCCCACTTCA,79.3
AGTAAAAGTCGTCGGCACGGGCCCCAAACGATAGAG,66.8
AAACGGGAACGAGCGTTCGTGCGGAGTGATGGTTAG,59.8
GTCTTGTCTCATTGGGAAGTGGGTGTCCCCACTTCA,90.5
GTCTTGTCTCATTGTCACGTAACTTTCCCCACTTCA,189
CATACCCAACCTTGTACTGTGGGTGAAGATATTTGT,73.1
TGCGCAACAACTTGACACGTGTTTTTATGTCTAGAA,2220
ACCCGGGTGTCGTTATGCGTGATGGGCATCAATTTT,80.5
CATACCCAACCTTGGCCGGTGGGTGAAGATATTTGT,58.6
TTTGGCCTCAAATGACACATGCAATCTCGAACAGTT,90.1
TTGCGGTATAGGGTCCACGTGATGGGAATAAAAGCA,5770
TGCGCAACAACTTGTTCAGTGGGTGTATGTCTAGAA,67.2
CATACCCAACCTTGTCACCGAACTTAAGATATTTGT,80.2
CCAACAAACGGAACACACGTGCGGAAGTTTCAAAGG,1150
AAAGCGGTAATTTGGGCTGTGGGTGCAGATATCTAT,73.5
AGTGATCTTATCTTCCACATGTCCTTGGCCACTGGC,77.4
GTCTTGTCTCATTTTCACGTGCCGTTCCCCACTTCA,914
CTTTCCCGATCTTGGCCAGTGGGTGTAGCACATTTG,65.3
CGGGGTTAAGTTTGCAACGTGGGTGGCTTGCAGCAG,92.3
TCCAGAATATAATAATATCGTATGGACCATCTCGCT,79
TAATCAATGGGTTTGCATGTGGTAATCAATTGATAA,115
GGAGATGATTTAACACCCGTGGAACTGAAAAAAGCC,84.1

# Block 4
# Target: RNA binding protein fox-1 homolog 2, RRM domain, GST-SBP tag (RBFOX2, Homo sapiens, UniProt O43251-10, residues 100-194)
# Technique: RNA Bind-n-Seq
# Molecule type: RNA
# Sample: in vitro
# Concentration: 365 nM
# Setting: natural RNA segment, single round, ends assumed
# Relative to: no-protein control
# Direction: higher = stronger binding
# All sequences stand within: GGGAGUUCUACAGUCCGACGAUC … UGGAAUUCUCGGGUGCCAA
# Target sequence (chain): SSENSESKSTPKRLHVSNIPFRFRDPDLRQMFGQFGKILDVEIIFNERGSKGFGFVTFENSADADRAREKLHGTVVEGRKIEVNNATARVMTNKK
Sequence,RBNS enrichment (R)
UUCUGUAAAUCUAUUUCAUAUCUGACCCACCAAACAGAUUUCUCUUUAAUAAAAAUCCUUUUUGUAAGUUCUCUUCUCGUGGGUGUGUGGCAGCGGUGAGCACCCGCCUC,0.622
CUUUUAAGGUGUUGGGCAUGGAACCCCAGGCCUUACCUGCUUGGCAAGUGCUUUACCCCCGAACUACACCUGAAGCUCCAUUCCUUGUCCCUUCUGCACCAUUUAAAGGU,1.85
UUGUCUUGGUCUGAUAAUGAUAAGAAGUCAAGGAUUGGCAGAGAAAAUACUAAACGCCAAGAGUUGAGCCUGUGGGUCUCUCCAUAAGAGUUUUAAAACUCUUGCCAGUU,0.646
GGAGACUCAGAGAUAUAGAAAGCAGCUGAAAUUUAAGGGAGAUAAAGCCUGCACUGCACCAAAGCUACGGGUCCCUGUGUUUCCUCUAUUCAGUGAUGUCAUCAACCUCA,0.441
GAGAGUGAAAAGGUAUUAAGGAAAAAGCCCCCAGCGGCACUAUGGGGGCUCCCUGGCGCAUGCCUGCUCCUGUCCCUGGAUUACCACACGUGCCCUCCCUGCCACCCUCC,0.782
ACUGAAAGCAAGGACACGAGAUCUAGGUGAUGACCGACGCGAAUGAAGCACCCGUGACUGCAACCCGGGCGGUUGUUGCUAGAGCCUUGCCAGUCCUUGGAAGAAGAGUU,0.995
CUCCUGCUUGCUUCCAAAGUGAUGGACAGGAAGGGGCAGAGUGAGUCACGGCCCAGACUGGGCACCUUCGCGUCUCAGCCUCAGGGAGCCCCACAGCCCCAAGCUCGCUG,0.391
UUAAAAUUACUGCCUAGAACUUUGAGAAGAGAAAAAUUCAGGGAUAAGUUGAAAGGCACUGGAACUGUUCAUGUCCAUACCAGACCGGUAAAUUAUAAGAUCCAGAUGUU,0.473
AGGGGACCCCUACUAAAGGGUAACUUCAGGUGUGCAGCCCUGAGCUCCAAGGCUCUGCACCAUGCCACACACUUGCUGUAAGGCUAGAAGUGAAGACCUUAUUAAUAGGA,0.218
AGAACAGCUGGAGUUUCUGUUGAUGUGAAGAAGGCAGCUCUUGGCCUCCCACUCCCACACUUCUUUGCCUAUAAAUCUUCCUAGCAGCAAUUUGAGCUACCUGAGGAGGA,1.09
ACAACAGGAUUCACAUUGUUAAUUUAUAAAUCUAGACUUGGAGAAUUAAGGACUGAGAAAUGACCAUAUCUUAAACUAUCUACGACAAAGUGAACUUAAAAGGACAUGCC,1.01
CAAGCCCUCCUUCUCACAUAGCAACAGCAUCCACCUACAGAAGCAGCCCCUCAGUGUAGCCACUUCACCACCCUGUGCACCCUAAGUGACUUUUGAUUCCUUGAACCUUU,1.21
